Experimental data pooled from the literature.
“And” joins repeats or separate records; there may be more than shown. ± gives the spread as reported.

Structure (SMILES)	cell line	test	setting	scale	endpoint	result
CC(C)[C@H](NC(=O)[C@H](CCCNC(=N)N)NC(=O)[C@@H]1CCCN1C(=O)[C@@H](NC(=O)[C@H](C)NC(=O)[C@H](Cc1ccc(O)cc1)NC(=O)[C@H](CCC(N)=O)NC(=O)[C@H](CCCCN)NC(=O)[C@H](CCCNC(=N)N)NC(=O)[C@@H]1CCCN1C(=O)[C@H](CCC(=O)O)NC(=O)[C@@H](NC(=O)[C@H](C)N)[C@@H](C)O)[C@@H](C)O)C(=O)N[C@@H](Cc1ccccc1)C(=O)N[C@@H](Cc1c[nH]c2ccccc12)C(=O)N[C@H](C(=O)N[C@@H](CC(=O)O)C(=O)N[C@@H](C)C(=O)N1CCC[C@H]1C(=O)NCC(=O)NCCOCCOCCOCCOCCOCCOCCOCCOCCOCCOCCOCCOCCC(=O)N[C@@H](CS)C(N)=O)[C@@H](C)O	H157 lung squamous carcinoma	cell binding, phage binding, refers to: output/input phage	10 min, 37 °C	reference: control phage	selectivity ratio	10 ± 5.3
Cc1cccc(-c2cccc(C)n2)n1.Cc1cccc(-c2cccc(C)n2)n1.F[P-](F)(F)(F)(F)F.F[P-](F)(F)(F)(F)F.[Ru+2].c1ccc2c(-c3nc4c5cccnc5c5ncccc5c4[nH]3)cccc2c1	SK-MEL-28		1% O2, with: green light 523 nm, 100 J/cm2	reference: dark over light EC50	phototoxicity index	2
O=C(C[Se]C(=O)c1ccccc1Nc1ccccc1)Nc1cccc(C(F)(F)F)c1	NCI60 ovarian subpanel	cytotoxicity, inhibitor	five-dose		CC50	7.79 µM
COc1ccccc1-c1ccncc1C(=O)Nc1nnc(OCc2ccc(Cl)cc2)s1	DLD-1 parental		8 µM	reference: untreated	colony survival	98.2% and 97% and 101%
CC(C)Cc1ccc(C(C)C(=O)[O-])cc1.CC(C)Cc1ccc(C(C)C(=O)[O-])cc1.[Cu+2].c1ccncc1.c1ccncc1 (stereo not drawn)	PC-3	cell growth or viability, MTT	48 h		GI50	88 µM
O=C(C[Se]C(=O)c1ccccc1Nc1cccc(C(F)(F)F)c1)Nc1cccc(C(F)(F)F)c1	NCI60 NSCLC subpanel	NCI60 five-dose screen			CC50	6.94 µM
CSCC[C@H](NC(=O)[C@H](CC(C)C)NC(=O)[C@H](CCC(N)=O)NC(=O)[C@H](C)NC(=O)[C@H](Cc1c[nH]c2ccccc12)NC(=O)[C@H](Cc1ccc(O)cc1)NC(=O)[C@H](CCC(=O)O)NC(=O)[C@H](CC(C)C)NC(=O)[C@H](Cc1ccccc1)NC(=O)[C@@H](NC(=O)[C@H](CC(C)C)NC(=O)[C@H](CCCCN)NC(C)=O)[C@@H](C)O)C(=O)N[C@@H](CCC(N)=O)C(=O)N[C@@H](CCCCN)C(=O)NCCCCCC(=O)N[C@@H](CCCCN)C(=O)N[C@@H](CC(C)C)C(=O)N[C@H](C(=O)N[C@@H](Cc1ccccc1)C(=O)N[C@@H](CC(C)C)C(=O)N[C@@]1(C)CCCC=CCCC[C@@](C)(C(=O)N[C@@H](CC(C)C)C(=O)N[C@@H](CCSC)C(=O)N[C@@H](CCC(N)=O)C(=O)N[C@@H](CCCCN)C(N)=O)NC(=O)[C@H](C)NC(=O)[C@H](Cc2c[nH]c3ccccc23)NC(=O)[C@H](Cc2ccc(O)cc2)NC1=O)[C@@H](C)O	human tumour cells	cell growth, CCK-8	16 µM		inhibition	inhibited
O=c1n(CCNCCOS(=O)(=O)c2ccccc2)c(=O)n(S(=O)(=O)c2ccccc2)c(=O)n1S(=O)(=O)c1ccccc1	A549	cell growth or viability, MTT	50 µg/mL, 24 h		viability	47.7%
Cc1c(Cl)cccc1Nc1ccccc1C(=O)[Se]CC(=O)Nc1cccc(C(F)(F)F)c1	NCI60 NSCLC subpanel	NCI60 five-dose screen			CC50	6.05 µM
CCOC(=O)C1(Cc2ccccc2)Oc2cc(F)ccc2N(Cc2ccccc2)C1=O (stereo not drawn)	HEK293T	cytotoxicity, CCK-8	6.25 µM, 72 h		inhibition	0.17 ± 0.32%
Cc1cc(Oc2nc(N3CC[C@@H](c4ccncc4)C3)ncc2F)[nH]n1	lung cancer cell lines	cell proliferation	average over lines		IC50	53.7 µM
N[C@H](C(=O)N1CCCC1)C1CCN(c2nccc3c(-c4ncc(Cl)cc4Cl)cccc23)CC1	human neutrophils	protein citrullination, inhibitor, flow cytometry, refers to: citrullinated proteins	3.16 nM, with: ionomycin		inhibition	1.46% and -0.575% and 5.02% and -10.3%
CSCC[C@H](NC(=O)[C@@H](NC(=O)[C@H](CCC(N)=O)NC(=O)[C@H](CO)NC(=O)[C@@H](N)C(C)C)[C@@H](C)O)C(=O)N[C@@H](CCCNC(=N)N)C(=O)N[C@@H](CCC(N)=O)C(=O)N[C@H](C(=O)N[C@@H](C)C(=O)N[C@H](C(=O)N1CCC[C@H]1C(=O)N[C@@H](CC(C)C)C(=O)N[C@@H](CC(C)C)C(=O)N[C@@H](Cc1c[nH]c2ccccc12)C(=O)N[C@@H](Cc1ccccc1)C(=O)N[C@@H](Cc1c[nH]c2ccccc12)C(=O)N[C@H](C(=O)NCC(=O)N[C@@H](CO)C(=O)N[C@@H](CC(C)C)C(=O)NCCOCCOCCOCCOCCOCCOCCOCCOCCOCCOCCOCCOCCC(=O)N[C@@H](CS)C(N)=O)[C@@H](C)O)C(C)C)[C@@H](C)O	H322	phage binding	10 min, 37 °C	reference: control phage	selectivity ratio	6.2 ± 2.5
O=C(O)c1ccc(-c2nc(-c3ccccc3Cl)c3sccn23)cc1	HEL	flow cytometry, refers to: surface CD41	0.1 mM	higher = more expression	mean fluorescence intensity	34700 a.u.
NC(=O)N/N=C/c1ccc(OCc2cccc(F)c2)cc1	IMR-32		400 µg/mL, 24 h	higher = more activity	catalase activity (OD450)	0.061 a.u.
CC(C)(C)C(=O)OCOP(=O)(OCOC(=O)C(C)(C)C)C1CCCN(O)C1=O (stereo not drawn)	SK-MEL-28				CC50	6.34 µM
CC[C@H](C)[C@H](NC(=O)[C@H](C)NC(=O)CNC(=O)[C@H](Cc1ccccc1)NC(=O)[C@H](CC(N)=O)NC(=O)[C@H](CC(N)=O)NC(=O)[C@H](CO)NC(=O)[C@H](CO)NC(=O)[C@H](Cc1c[nH]cn1)NC(=O)[C@@H](NC(=O)[C@H](CC(C)C)NC(=O)[C@H](Cc1ccccc1)NC(=O)[C@H](CC(N)=O)NC(=O)[C@H](C)NC(=O)[C@H](CC(C)C)NC(=O)[C@H](CCCNC(=N)N)NC(=O)[C@H](CCC(N)=O)NC(=O)[C@@H](NC(=O)[C@H](C)NC(=O)[C@@H]1CSSC[C@H](NC(=O)[C@@H](N)CCCCN)C(=O)N[C@@H](CC(N)=O)C(=O)N[C@@H]([C@@H](C)O)C(=O)N[C@@H](C)C(=O)N[C@@H]([C@@H](C)O)C(=O)N1)[C@@H](C)O)C(C)C)C(=O)N[C@@H](CC(C)C)C(=O)N[C@@H](CO)C(=O)N[C@@H](CO)C(=O)N[C@H](C(=O)N[C@@H](CC(N)=O)C(=O)N[C@H](C(=O)NCC(=O)N[C@@H](CO)C(=O)N[C@@H](CC(N)=O)C(=O)N[C@H](C(=O)N[C@@H](Cc1ccc(O)cc1)C(N)=O)[C@@H](C)O)C(C)C)[C@@H](C)O	RIN-m5F	ELISA			nuclear translocation lag	~4 h
CC(C)C[C@H](NC(=O)[C@H](CC(=O)O)NC(=O)CNC(=O)[C@@H](N)CCCNC(=N)N)C(=O)N[C@@H](C)C(=O)N[C@H](C(=O)N[C@@H](CC(C)C)C(=O)N[C@@H](CCCNC(=N)N)C(=O)N[C@@H](CCC(N)=O)C(=O)N[C@@H](CC(C)C)C(=O)N[C@@H](C)C(=O)N[C@@H](CCC(N)=O)C(=O)N[C@@H](CCC(=O)O)C(=O)N[C@@H](CC(=O)O)C(=O)NCC(=O)N[C@H](C(=O)N[C@H](C(=O)NCC(=O)N[C@H](C(=O)N[C@@H](CCCNC(=N)N)C(=O)NCCOCCOCCOCCOCCOCCOCCOCCOCCOCCOCCOCCOCCC(=O)N[C@@H](CS)C(N)=O)C(C)C)C(C)C)C(C)C)[C@@H](C)O	H2347 lung adenocarcinoma	cell binding, phage binding, refers to: output/input phage	10 min, 37 °C	reference: control phage	selectivity ratio	38 ± 9.2
O=C(C[Se]C(=O)c1ccccc1)Nc1cccc(C(F)(F)F)c1	NCI60 leukemia subpanel	cell growth	10 µM, 48 h, one-dose		mean growth percent	-64.5%
C=CCN1C(=O)C(CC=C)(C(=O)OCC)Oc2cc(F)ccc21 (stereo not drawn)	HEK293T	cytotoxicity, CCK-8	0.78 µM, 72 h		inhibition	0%
[Cl-].[Cl-].[Ru+2].c1ccc(-c2ccccn2)nc1.c1ccc(-c2ccccn2)nc1.c1ccc2cc3nc4c5cccnc5c5ncccc5c4nc3cc2c1	SK-MEL-28	cell viability	normoxia, with: green light 523 nm, 100 J/cm2		EC50	0.179 ± 0.051 µM

A few entries again:
Structure (SMILES)	cell line	test	setting	scale	endpoint	result
CC(C)Cc1ccc(C(C)C(=O)[O-])cc1.CC(C)Cc1ccc(C(C)C(=O)[O-])cc1.[Cu+2].c1ccncc1.c1ccncc1 (stereo not drawn)	PC-3	cell growth or viability, MTT	48 h		GI50	88 µM
CC(C)[C@H](NC(=O)[C@H](CCCNC(=N)N)NC(=O)[C@@H]1CCCN1C(=O)[C@@H](NC(=O)[C@H](C)NC(=O)[C@H](Cc1ccc(O)cc1)NC(=O)[C@H](CCC(N)=O)NC(=O)[C@H](CCCCN)NC(=O)[C@H](CCCNC(=N)N)NC(=O)[C@@H]1CCCN1C(=O)[C@H](CCC(=O)O)NC(=O)[C@@H](NC(=O)[C@H](C)N)[C@@H](C)O)[C@@H](C)O)C(=O)N[C@@H](Cc1ccccc1)C(=O)N[C@@H](Cc1c[nH]c2ccccc12)C(=O)N[C@H](C(=O)N[C@@H](CC(=O)O)C(=O)N[C@@H](C)C(=O)N1CCC[C@H]1C(=O)NCC(=O)NCCOCCOCCOCCOCCOCCOCCOCCOCCOCCOCCOCCOCCC(=O)N[C@@H](CS)C(N)=O)[C@@H](C)O	H157 lung squamous carcinoma	cell binding, phage binding, refers to: output/input phage	10 min, 37 °C	reference: control phage	selectivity ratio	10 ± 5.3
